Measurements collected from several papers.
Numbered parts are unrelated; each lists some results of a single study. Positions count from the first letter of the parent shown.

Series 1
Target: Interferon regulatory factor 5, full length, phosphomimetic (IRF5, Homo sapiens, UniProt Q13568-2, residues 1-514, S451D/S453D/S456D/S462D)
Method: protein-binding microarray
Molecule type: double-stranded DNA, one strand shown
Medium: in vitro
Concentration: 940 nM top
Setting: 60-bp whole probe
With: salmon DNA 0.4 mg/ml
Relative to: random background probes
Direction: higher = stronger binding
Shared flanks, not repeated: GCCTAGCAC … GTCTTGATTCGCTTGACGCTGCTG
Sequence | fitted relative affinity [z-score]
TTAGAGCTGAGTATCGATTAGTGCTAG | 4
GACGCTTTCGGGTATCGGGACGTGCTA | 3.57
TTAGATATCAGACTGGATGAGTGCTAG | -0.365
TTAGATTTCGGTCTCGATTAGTGCTAG | 4.63
CCCTGTTTCCATCTCTCAAAGTGCTAG | 1.93
TCACATCTCAAGTAGCCTACTGTGCTA | 0.682
TCATTTCCCACTTTCACACTGTGCTAG | 2.53
GACGGACTGGACTAACGGGACGTGCTA | -0.999
GACGATTTCGGCTTTCGAGACGTGCTA | 0.908
TTAGGTATCGGACTGGGTAAGTGCTAG | 3.78
GACGGTTTCGGGTATCGAGACGTGCTA | 9.06
TCATTTCTCTTTCCTTCACTGTGCTAG | 2.25
TACTTTCTATCTCTGTTTTTGTGCTAG | 4.8
GACGGTTTCGGGTTTCGGGAGGTGCTA | 8.85
GACGGTATCGGGTTTCGGGGCGTGCTA | 5.56
TTAGGTTTCGGGACTGGCTTAGTGCTA | 7.36
CTAGGTTCCCTTTTCCTTTAGTGCTAG | 0.69

Series 2
Target: RING finger protein unkempt homolog, zinc fingers 1-6, GST-SBP tag (UNK, Homo sapiens, UniProt Q9C0B0, residues 30-357)
Method: RNA Bind-n-Seq
Molecule type: RNA
Medium: in vitro
Concentration: not given
Setting: RNA with constant flanks, human and mouse sites, ends assumed
Relative to: input RNA pool
Direction: higher = stronger binding
Shared flanks, not repeated: GGGAGUUCUACAGUCCGACGAUC … CAACAGAGGAUUGAGCAUCA
Target sequence (chain): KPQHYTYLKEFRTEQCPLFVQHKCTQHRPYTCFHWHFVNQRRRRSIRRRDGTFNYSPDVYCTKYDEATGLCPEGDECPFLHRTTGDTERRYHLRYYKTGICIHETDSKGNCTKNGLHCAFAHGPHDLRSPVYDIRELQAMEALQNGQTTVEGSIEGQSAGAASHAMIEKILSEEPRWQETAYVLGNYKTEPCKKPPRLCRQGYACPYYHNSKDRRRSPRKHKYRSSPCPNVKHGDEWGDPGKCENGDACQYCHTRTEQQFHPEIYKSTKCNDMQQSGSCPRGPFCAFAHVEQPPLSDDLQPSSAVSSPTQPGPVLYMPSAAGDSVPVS
Sequence | bound/input enrichment
AAAAAAAAAAGGAUUUGAAACCAUAAAGUGUUCUGAAGAAAUUAAGUCUAUAAAAAGCAUACUUUCUUUUUUCUUUUCCUUUUUUCCCUCCACAGACAAUGUCCUCUGUUCAAUUCCUAA | 0.17 ratio
CCUGACACUCGGCGCUUCCGAUUUGCCCUCCCUUCACCCCAGCACAUCCUGGGCCUUCCUAUUGGCCAACACAUCUACCUCUCGACUAGGAUCGAUGGCAACUUGGUCAUUCGGCCCUAC | 0.336 ratio
AAAAAACCCCGAUUUUAGAUGUGAUAUUUAGGCUUUCAUUCCAGUUUGUUUUGUUUUUUUGUUUAGAUACCAAUCUUUUAAAUUCUUGCAUUUUAGUAAGAAAGCUAUCUUUUUAUGGAU | 11.6 ratio
CUCUGUCCUGAAUGUGAGAAUCCUGAAACAGAUUUGCAUGUCAAUCCAAAGAAGCAAACAAUAGGUAAUUCUUGUAAAGCCUGUGGCUAUCGAGGCAUGCUUGACACACAUCAUAAACUC | 0.211 ratio
UAUUCACAACUUGGAACAUUUGCACCAAUGUGGGAUGUAUUCAAAACAUCUACAGAGAAAUUAGCAAAUUGUCAUUUGGAUCUUGUUAGAAAAUUACAGGAAUUAAUAAAGGAAGUUCAG | 2.7 ratio
UUUAAAGAAAAUACAAAGAUGCAGUUUCUGCAGGGUGUGGCGUGGACCAGUGCUGCCGACCAUAGCUCAGAGAGCCCUGCCCCUGCCUCACUGCACUGCAGCCUCCUCGGAGGCCGCACC | 0.183 ratio
CGGGCGGCUGGAGACAGUGGAGUCCGUCACGCUGGCGGUGGUGUACAUAUUCAGCCCCGGUACAGGGAGUUUCCCCAGCUUACCCGGUCCCAGGUGAUCCAGGGUGAGUUCUUAAGCUCA | 0.0658 ratio
UCUCGGGGUUUCAAAACGUUGAAAUCAAGGACACGACGUUUGCAGUCUACCUCUGAAAGAUUAGUAGAAGCACAGAAUAUAGCACCAUCAUUUGUGAAGGGGUUUCUUUUGCGGGACAGA | 0.264 ratio
UGGAGCUGCCCGUCUCAGUGUGUGAGUGUGUGUGUGCGUGCAUGUGUGUGUGUGUGUGUGUGUGUGUGUGUGUCUGUCUGCCUGUCUCUCUCCUCCUGGACCCAGGGCAGCCAAGGGCAG | 0.587 ratio
GAGAGAGAAAAACUCGUGAAAGCUGAAAGAAAAUUCAUUGAAGAUAGGGUUAAAAAAAUAAUAGAACUGAAAAGGAAAGUCUGUGGCGAUUCAGAUAAAGGAUUUGUUGUUAUUAAUCAA | 19.6 ratio
ACUCCUCCCCCUACUCCACCGGACCUCAACCAGGACUUCAGUGGAUUUCAGCUUCUAGUGGAUGUUGCACUCAAACGGGCUGCAGAGAUGGAGCUUCAGGCAAAACUUACAGCUUAACCC | 0.224 ratio

Series 3
Target: ABI1, truncated, D143A, DHFR fusion (Arabidopsis thaliana)
Method: DHFR PCA, deep sequencing
Medium: yeast
Setting: methotrexate growth selection, single substitutions
With: (+)-ABA 200 µM
Relative to: wild-type fitted maximum
Direction: higher = stronger binding
Starting sequence: PYL1, truncated, DHFR fusion (Arabidopsis thaliana); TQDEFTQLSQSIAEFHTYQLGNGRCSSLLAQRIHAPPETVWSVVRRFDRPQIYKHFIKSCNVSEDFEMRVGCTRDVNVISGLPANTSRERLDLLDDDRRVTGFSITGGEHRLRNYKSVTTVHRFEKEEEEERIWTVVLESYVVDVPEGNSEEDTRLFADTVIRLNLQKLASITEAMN
Variant | relative binding score [%]
I52Q | 96.5
D96F | 22.9
V43P | -31.9
F124G | 111
N149K | 40
R111P | 33.6
R163A | 78.5
Q19G | 94
V143M | 82.3
S9C | 86.1
H55V | 106
K168V | 87.9
V145Q | 64.2
D48A | 65.8
E14M | 92.5
L91F | 24.7

Series 4
Target: CCNE2, cyclin fold, Cln2 fusion (human)
Method: yeast growth competition, sequencing
Medium: yeast
Setting: strong parent motif
Relative to: not given
Direction: higher = stronger binding
Starting sequence: INSM1 docking peptide (human); PKAIRKLHFEDEV; partner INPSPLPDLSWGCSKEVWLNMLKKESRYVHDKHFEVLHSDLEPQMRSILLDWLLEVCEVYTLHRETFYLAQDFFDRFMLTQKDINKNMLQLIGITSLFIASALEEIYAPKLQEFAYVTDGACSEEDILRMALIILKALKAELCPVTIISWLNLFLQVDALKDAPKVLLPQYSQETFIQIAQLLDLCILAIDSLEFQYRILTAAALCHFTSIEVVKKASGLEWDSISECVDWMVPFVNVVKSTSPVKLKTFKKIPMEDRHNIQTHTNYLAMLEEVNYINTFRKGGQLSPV
Variant | normalised enrichment score
K6V | 1.02
I4A | 0.771
H8C | 2.1
A3N | -0.338
E10I | 0.84
L7R | 0.336
A3D | -0.25
F9A | -0.355
L7W | 0.15
R5W | -0.0674
E10F | 1.14
D11H | 1.63
H8Q | 1.6
F9L | 0.325
K6A | 0.818
K6S | 0.0435
E10P | 1.75
D11C | 2.11
I4E | -0.0746
R5L | 0.441
F9K | -0.301
D11N | 1.91
R5A | -0.126
D11S | 1.75
A3K | 0.283

Series 5
Target: Histone acetyltransferase KAT6A, winged helix 1, GST fusion (KAT6A, Homo sapiens, UniProt Q92794, residues 1-85)
Method: protein binding microarray
Molecule type: double-stranded DNA, one strand shown
Medium: in vitro
Concentration: not given
Setting: 8-mer, flanks averaged, mean of 2 arrays, mostly near background
Relative to: not given
Direction: higher = stronger binding
Residues (chain): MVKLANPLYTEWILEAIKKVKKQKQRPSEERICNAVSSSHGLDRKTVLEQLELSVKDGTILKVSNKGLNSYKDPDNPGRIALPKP
Sequence | E-score
CGGACCCG | 0.379
ATTTACCG | 0.207
AAACTTTA | -0.0778
ATGATTTA | -0.224
TGACGGCA | 0.342
GTGAAAGA | -0.139
AAATGGAC | -0.0427
CGTTATCA | -0.0446
ACCGTTCT | 0.0258
GACCTACC | -0.0862
CGTATGCC | 0.153
ATTGGCCG | 0.143
ATGTATAA | -0.145
CTCCGGGA | 0.132
CCTCCACG | 0.0115
TCACCAGA | -0.0848
ATGAGAAT | -0.0268
ACAACGCG | 0.287
GAATTAGA | -0.259
AGGTCATC | 0.0874
ACCGTAGA | 0.17
ACGTACGA | 0.00511
AACACTGG | -0.0976
ACCCTTTC | 0.0494
CCGGCGGC | 0.484

Series 6
Target: Sal-like protein 4, full length isoform B (SALL4, Homo sapiens, UniProt Q9UJQ4-2, residues 1-616)
Method: universal PBM
Molecule type: double-stranded DNA, one strand shown
Medium: in vitro
Concentration: not given
Setting: 8-mer, flanks averaged, mean of replicates
Direction: higher = stronger binding
Residues (chain): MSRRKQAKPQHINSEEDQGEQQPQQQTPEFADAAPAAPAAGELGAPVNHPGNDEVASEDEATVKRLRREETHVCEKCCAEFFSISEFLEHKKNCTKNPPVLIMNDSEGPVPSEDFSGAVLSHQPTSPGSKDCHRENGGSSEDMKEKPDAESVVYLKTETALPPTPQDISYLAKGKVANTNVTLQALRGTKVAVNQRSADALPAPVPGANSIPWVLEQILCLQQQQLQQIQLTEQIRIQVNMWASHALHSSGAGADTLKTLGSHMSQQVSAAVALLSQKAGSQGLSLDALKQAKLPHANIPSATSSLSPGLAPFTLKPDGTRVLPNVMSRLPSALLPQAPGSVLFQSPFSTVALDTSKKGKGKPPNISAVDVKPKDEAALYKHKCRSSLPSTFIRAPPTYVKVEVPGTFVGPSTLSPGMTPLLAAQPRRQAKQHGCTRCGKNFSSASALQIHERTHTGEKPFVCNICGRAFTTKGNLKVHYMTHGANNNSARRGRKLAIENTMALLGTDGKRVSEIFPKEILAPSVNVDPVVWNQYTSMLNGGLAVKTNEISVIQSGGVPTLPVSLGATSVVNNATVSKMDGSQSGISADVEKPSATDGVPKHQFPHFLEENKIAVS
Sequence | E-score
ACTCATGA | 0.185
GACCCGAC | -0.263
GAAAACGA | -0.0634
CCACCTCA | -0.139
CAGAGATG | 0.0579
GTACTCTA | 0.0347
CTCAGGTC | -0.183
CGAAGCCC | -0.26
CACGTGGG | -0.226
CGCTTAAC | 0.0175
AACAGACA | 0.0035
CCCTCAAG | -0.0223
ATCCCATG | -0.0171
AAGAATCA | 0.212
CTAATTAA | 0.267
AAAAGTAG | 0.203
AGGTTCTA | 0.014
CGAGGCAC | -0.239
ACAACACT | 0.196
